Measurements pooled from the literature.
Lines come from different studies, so protocols differ.
Method: steady-state kinetics
B1: ASRGL1 (Homo sapiens, UniProt Q7L266); chain 1 MNPIVVVHGGGAGPISKDRKERVHQGMVRAATVGYGILREGGSAVDAVEGAVVALEDDPEFNAGCGSVLNTNGEVEMDASIMDGKDLSAGAVSAVQCIANPIKLARLVMEKTPHCFLTDQGAAQFAAAMGVPEIPGEKLVTERNKKRLEKEKHEKGAQKTDCQKNLG; chain 2 TVGAVALDCKGNVAYATSTGGIVNKMVGRVGDSPCLGAGGYADNDIGAVSTTGHGESILKVNLARLTLFHIEQGKTVEEAADLSLGYMKSRVKGLGGLIVVSKTGDWVAKWTSTSMPWAAAKDGKLHFGIDPDDTTITDLP
B2: enzyme (Listeria monocytogenes, UniProt Q8Y829); chain MKKVITYGTFDLLHWGHIHLLKRAKALGDYLIVAISSDEFNRIKHKEAYHSYEHRKLIIEAIRYVDEVIPENNWEQKRDDIEKYGIDVFVMGDDWEGEFDFLKDVCEVVYLPRTEGISTSQIKDELK
B3: UCK2 H117Y (Homo sapiens, UniProt Q9BZX2); chain MAGDSEQTLQNHQQPNGGEPFLIGVSGGTASGKSSVCAKIVQLLGQNEVDYRQKQVVILSQDSFYRVLTSEQKAKALKGQFNFDHPDAFDNELILKTLKEITEGKTVQIPVYDFVSYSRKEETVTVYPADVVLFEGILAFYSQEVRDLFQMKLFVDTDADTRLSRRVLRDISERGRDLEQILSQYITFVKPAFEEFCLPTKKYADVIIPRGADNLVAINLIVQHIQDILNGGPSKRQTNGCLNGYTPSRKRQASESSSRPH
B4: mleA (Oenococcus oeni, UniProt Q48796); chain MTDPVSILNDPFINKGTAFTEAEREELGLNGLLPAKVQALQEQVDQTYAQFQSKVSNLEKRLFLMEIFNTNHVLFYKLFSQHVVEFMPIVYDPTIADTIENYSELFVEPQGAAFLDINHPENIQSTLKNAANGRDIKLLVVSDAEGILGIGDWGVQGVDIAVGKLMVYTVAAGIDPSTVLAVVIDAGTNNEKLLKDPMYLGNKFNRVRGDKYYDFIDKFVNHAESLFPNLYLHWEDFGRSNASNILNSYKDKIATFNDDIQGTGIVVLAGVLGALKISGQKLTDQTYMSFGAGTAGMGIVKQLHEEMVEQGLSDEEAKKHFFLVDKQGLLFDDDPDLTPEQKPFAAKRSDFKNANQLTNLQAAVEAVHPTILVGTSTHPNSFTEEIVKDMSGYTERPIIFPISNPTKLAEAKAEDVLKWSNGKALIGTGVPVDDIEYEGNAYQIGQANNALIYPGLGFGAIAAQSKLLTPEMISAAAHSLGGIVDTTKVGAAVLPPVSKLADFSRTVAVAVAKKAVEQGLNRQPIDDVEKAVDDLKWDPKY
B5: 3-hydroxypropionyl-CoA dehydratase (Metallosphaera sedula, UniProt A4YI89); chain MEFETIETKKEGNLFWITLNRPDKLNALNAKLLEELDRAVSQAESDPEIRVIIITGKGKAFCAGADITQFNQLTPAEAWKFSKKGREIMDKIEALSKPTIAMINGYALGGGLELALACDIRIAAEEAQLGLPEINLGIYPGYGGTQRLTRVIGKGRALEMMMTGDRIPGKDAEKYGLVNRVVPLANLEQETRKLAEKIAKKSPISLALIKEVVNRGLDSPLLSGLALESVGWGVVFSTEDKKEGVSAFLEKREPTFKGK
B6: Pck1 A467G (Rattus norvegicus, UniProt P07379); chain MPPQLHNGLDFSAKVIQGSLDSLPQEVRKFVEGNAQLCQPEYIHICDGSEEEYGRLLAHMQEEGVIRKLKKYDNCWLALTDPRDVARIESKTVIITQEQRDTVPIPKSGQSQLGRWMSEEDFEKAFNARFPGCMKGRTMYVIPFSMGPLGSPLAKIGIELTDSPYVVASMRIMTRMGTSVLEALGDGEFIKCLHSVGCPLPLKKPLVNNWACNPELTLIAHLPDRREIISFGSGYGGNSLLGKKCFALRIASRLAKEEGWLAEHMLILGITNPEGKKKYLAAAFPSACGKTNLAMMNPTLPGWKVECVGDDIAWMKFDAQGNLRAINPENGFFGVAPGTSVKTNPNAIKTIQKNTIFTNVAETSDGGVYWEGIDEPLAPGVTITSWKNKEWRPQDEEPCAHPNSRFCTPASQCPIIDPAWESPEGVPIEGIIFGGRRPAGVPLVYEALSWQHGVFVGAAMRSEATAGAEHKGKVIMHDPFAMRPFFGYNFGKYLAHWLSMAHRPAAKLPKIFHVNWFRKDKNGKFLWPGFGENSRVLEWMFGRIEGEDSAKLTPIGYVPKEDALNLKGLGDVNVEELFGISKEFWEKEVEEIDKYLEDQVNADLPYEIERELRALKQRISQM
B7: carbamoyl phosphate synthetase large subunit G575K (Escherichia coli, UniProt P00968); chain PKRTDIKSILILGAGPIVIGQACEFDYSGAQACKALREEGYRVILVNSNPATIMTDPEMADATYIEPIHWEVVRKIIEKERPDAVLPTMGGQTALNCALELERQGVLEEFGVTMIGATADAIDKAEDRRRFDVAMKKIGLETARSGIAHTMEEALAVAADVGFPCIIRPSFTMGGSGGGIAYNREEFEEICARGLDLSPTKELLIDESLIGWKEYEMEVVRDKNDNCIIVCSIENFDAMGIHTGDSITVAPAQTLTDKEYQIMRNASMAVLREIGVETGGSNVQFAVNPKNGRLIVIEMNPRVSRSSALASKATGFPIAKVAAKLAVGYTLDELMNDITGGRTPASFEPSIDYVVTKIPRFNFEKFAGANDRLTTQMKSVGEVMAIGRTQQESLQKALRGLEVGATGFDPKVSLDDPEALTKIRRELKDAGADRIWYIADAFRAGLSVDGVFNLTNIDRWFLVQIEELVRLEEKVAEVGITGLNADFLRQLKRKGFADARLAKLAGVREAEIRKLRDQYDLHPVYKRVDTCAAEFATDTAYMYSTYEEECEANPSTDREKIMVLGGGPNRIGQKIEFDYCCVHASLALREDGYETIMVNCNPETVSTDYDTSDRLYFEPVTLEDVLEIVRIEKPKGVIVQYGGQTPLKLARALEAAGVPVIGTSPDAIDRAEDRERFQHAVERLKLKQPANATVTAIEMAVEKAKEIGYPLVVRPSYVLGGRAMEIVYDEADLRRYFQTAVSVSNDAPVLLDHFLDDAVEVDVDAICDGEMVLIGGIMEHIEQAGVHSGDSACSLPAYTLSQEIQDVMRQQVQKLAFELQVRGLMNVQFAVKNNEVYLIEVNPRAARTVPFVSKATGVPLAKVAARVMAGKSLAEQGVTKEVIPPYYSVKEVVLPFNKFPGVDPLLGPEMRSTGEVMGVGRTFAEAFAKAQLGSNSTMKKHGRALLSVREGDKERVVDLAAKLLKQGFELDATHGTAIVLGEAGINPRLVNKVHEGRPHIQDRIKNGEYTYIINTTSGRRAIEDSRVIRRSALQYKVHYDTTLNGGFATAMALNADATEKVISVQEMHAQIK
B8: enzyme (Chlamydomonas reinhardtii, UniProt A0A2K3D6R4); chain MSETAGKPIECKAAIAWEAKKPLEVRTVTVAPPGPGEVRVQIKATALCQTDAYTLGGLDPEGRFPCILGHEAAGVVESVGEGVTSVKPGDHVIPCYQAYCGECKFCKHPESNLCVSVRAFTGKGVMKSDGKPRFTVDGKPIYHFMGTSTFSEYTVVHEQSVAKIDVNAPLDKVCLLGCGVSTGWGAVFNTAKVTAGSTVAVFGLGAVGLAVIEAAKRAGASRIIAVDIDPTKFPTAKEFGATDCINPKDHEKPIQQVIVEMTEWGCDYTFECIGNTAVMRAALECAHRGWGTSVIVGVAAAGQEISTRPFQLVTGRRWMGTAFGGYKSRVQVPDLVTDYMSGATLLDKYITHNMKFDQINEAFELLHAGECLRCVLTF
Chain of UniProt P76043 (whole entry, looked up): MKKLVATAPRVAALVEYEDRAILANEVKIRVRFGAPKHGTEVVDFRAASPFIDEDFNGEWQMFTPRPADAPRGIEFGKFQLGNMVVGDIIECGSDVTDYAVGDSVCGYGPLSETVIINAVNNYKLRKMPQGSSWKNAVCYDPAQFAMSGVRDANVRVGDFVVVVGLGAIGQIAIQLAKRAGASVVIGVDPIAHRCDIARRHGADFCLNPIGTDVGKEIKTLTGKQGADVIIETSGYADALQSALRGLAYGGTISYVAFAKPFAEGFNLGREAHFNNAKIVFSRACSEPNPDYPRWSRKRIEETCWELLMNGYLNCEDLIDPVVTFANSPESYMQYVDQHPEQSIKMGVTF
Chain of UniProt Q8QZR1 (whole entry, looked up): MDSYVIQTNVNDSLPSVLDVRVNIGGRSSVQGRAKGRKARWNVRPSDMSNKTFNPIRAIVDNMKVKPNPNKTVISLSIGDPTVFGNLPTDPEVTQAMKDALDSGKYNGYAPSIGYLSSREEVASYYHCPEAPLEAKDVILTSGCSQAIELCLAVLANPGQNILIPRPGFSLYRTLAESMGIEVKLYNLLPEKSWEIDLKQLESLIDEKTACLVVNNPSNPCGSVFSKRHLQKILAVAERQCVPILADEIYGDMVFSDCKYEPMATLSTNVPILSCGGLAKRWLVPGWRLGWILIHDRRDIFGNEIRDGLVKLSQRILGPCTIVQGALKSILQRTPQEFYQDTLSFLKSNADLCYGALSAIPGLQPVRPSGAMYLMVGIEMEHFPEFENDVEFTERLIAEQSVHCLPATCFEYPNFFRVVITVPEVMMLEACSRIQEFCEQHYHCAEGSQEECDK
Chain of UniProt O60656 (whole entry, looked up): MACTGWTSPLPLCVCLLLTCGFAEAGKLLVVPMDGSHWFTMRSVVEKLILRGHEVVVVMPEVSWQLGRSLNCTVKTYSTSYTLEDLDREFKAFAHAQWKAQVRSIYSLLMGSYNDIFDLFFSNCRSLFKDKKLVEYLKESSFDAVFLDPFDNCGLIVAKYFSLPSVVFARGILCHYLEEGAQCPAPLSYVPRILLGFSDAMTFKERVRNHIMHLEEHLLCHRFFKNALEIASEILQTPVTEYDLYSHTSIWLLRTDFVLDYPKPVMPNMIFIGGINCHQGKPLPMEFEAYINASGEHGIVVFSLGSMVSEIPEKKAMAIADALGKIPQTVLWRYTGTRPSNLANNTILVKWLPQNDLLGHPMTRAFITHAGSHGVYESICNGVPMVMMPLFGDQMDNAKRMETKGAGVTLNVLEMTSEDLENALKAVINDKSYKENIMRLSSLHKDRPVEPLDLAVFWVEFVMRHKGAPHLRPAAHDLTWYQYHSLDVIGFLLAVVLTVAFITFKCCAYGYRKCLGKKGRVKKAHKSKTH

Molecule | substrate | pH | temperature | setting | with | measurement | value
B1 (ASRGL1) | C[C@H](NC(=O)C[C@H](N)C(=O)O)C(=O)O | pH 7.4 | 37 °C | NaCl 100 mM | – | Km | 1000 µM
B2 (enzyme) | O=P(O)(O)OC[C@H](O)CO | pH 8 | 37 °C | apparent | – | Km | 6560 µM
B3 (UCK2 H117Y) | Nc1ccn([C@@H]2O[C@H](CO)[C@@H](O)[C@H]2O)c(=O)n1 | pH 7.2 | 25 °C | KCl 100 mM | ATP 100–200 µM | Km | 138 µM
enzyme (Mortierella alpina, UniProt U5Y3C6) | CCCCCC/C=C\CCCCCCCC(=O)SCCNC(=O)CCNC(=O)[C@H](O)C(C)(C)COP(=O)(O)OP(=O)(O)OC[C@H]1O[C@@H](n2cnc3c(N)ncnc32)[C@H](O)[C@@H]1OP(=O)(O)O | pH 7.5 | 28 °C | – | – | Km | 3.7 µM
B4 (mleA) | NC(=O)c1ccc[n+]([C@@H]2O[C@H](COP(=O)(O)OP(=O)(O)OC[C@H]3O[C@@H](n4cnc5c(N)ncnc54)[C@H](O)[C@@H]3O)[C@@H](O)[C@H]2O)c1 | pH 6 | 45 °C | cofactor varied | – | Km | 82 µM
protein (Candidatus Protochlamydia amoebophila, UniProt Q6MEN4) | Nc1ccn([C@@H]2O[C@H](COP(=O)(O)OP(=O)(O)OP(=O)(O)O)[C@@H](O)[C@H]2O)c(=O)n1 | pH 7 | 30 °C | transporter, labelled substrate, apparent, not purified | – | Km | 570 µM
B5 | CC(C)(COP(=O)(O)OP(=O)(O)OC[C@H]1O[C@@H](n2cnc3c(N)ncnc32)[C@H](O)[C@@H]1OP(=O)(O)O)[C@@H](O)C(=O)NCCC(=O)NCCSC(=O)CCO | pH 6.5 | 65 °C | substrate made in situ | ATP, CoA, NADPH | Km | 25.1 µM
B6 (Pck1 A467G) | Nc1nc2c(ncn2[C@@H]2O[C@H](COP(=O)(O)OP(=O)(O)O)[C@@H](O)[C@H]2O)c(=O)[nH]1 | pH 7.5 | 25 °C | – | – | Km | 70 µM
Tat (Mus musculus, UniProt Q8QZR1) | O=C(O)CCC(=O)C(=O)O | pH 7 | 38 °C | – | PLP | Km | 1800 µM
B7 | Nc1ncnc2c1ncn2[C@@H]1O[C@H](COP(=O)(O)OP(=O)(O)OP(=O)(O)O)[C@@H](O)[C@H]1O | pH 7.6 | – | KCl 100 mM | glutamine 10 mM, ornithine 10 mM | Km | 70 µM
putA (Bradyrhizobium diazoefficiens, UniProt Q89E26) | O=C(O)[C@@H]1CCC=N1 | pH 7.5 | 23 °C | – | – | Km | 420 µM
UGT1A9 (Homo sapiens, UniProt O60656) | COc1cc2c(=O)c(-c3ccc(O)cc3)coc2cc1O | pH 7.4 | 37 °C | – | – | Vmax | 0.000403 µmol/min/mg
B8 (enzyme) | NC(=O)C1=CN([C@@H]2O[C@H](COP(=O)(O)OP(=O)(O)OC[C@H]3O[C@@H](n4cnc5c(N)ncnc54)[C@H](O)[C@@H]3O)[C@@H](O)[C@H]2O)C=CC1 | pH 7.9 | – | apparent, cofactor varied | – | Km | 14.3 µM
ycjQ (Escherichia coli, UniProt P76043) | CO[C@H]1O[C@H](CO)[C@H](O)C(=O)[C@H]1O | pH 7 | 30 °C | – | NADH 0.3 mM, MnCl2 0.5 mM | Km | 9400 µM

Some of these lines once more:
Molecule | substrate | pH | temperature | setting | with | measurement | value
B5 | CC(C)(COP(=O)(O)OP(=O)(O)OC[C@H]1O[C@@H](n2cnc3c(N)ncnc32)[C@H](O)[C@@H]1OP(=O)(O)O)[C@@H](O)C(=O)NCCC(=O)NCCSC(=O)CCO | pH 6.5 | 65 °C | substrate made in situ | ATP, CoA, NADPH | Km | 25.1 µM
B6 (Pck1 A467G) | Nc1nc2c(ncn2[C@@H]2O[C@H](COP(=O)(O)OP(=O)(O)O)[C@@H](O)[C@H]2O)c(=O)[nH]1 | pH 7.5 | 25 °C | – | – | Km | 70 µM
